Measured values pooled from the literature.
Numbered parts are unrelated; each lists some results of a single study. Positions count from the first letter of the parent shown.

Block 1
Target: Fragile X messenger ribonucleoprotein 1, C-terminal low-complexity region (Fmr1, Mus musculus, UniProt P35922)
Method: RNA Bind-n-Seq
Form: RNA
Medium: in vitro
Tested at: 200 nM
Setting: whole 134-nt RNA, ends assumed
With: 150 mM LiCl
Reference: input library
Reading: higher = stronger binding
All molecules: 7-deaza-guanosine replaces G
Shared flanks, not repeated: GGGAGUUCUACAGUCCGACGAUC … UGGAAUUCUCGGGUGUCAAGG
Strand | log2 enrichment
UCUCCCCAGGAGCACAGAAAAUGGUUCUGCCCCCUCCACAGCUCCCACAGACCAGAGCCGGCCACCGUUGGAGGUGAGUCGCCCGCCCCU | 1.85
GCAGGAAGUAAAAACAAAUGGAAACGCUUCGGAUAGUGGCAGGGGUGGGGGUUGCUAAGGAAAGGGUGGGAUGGGAGUGGGUAAAGAGUU | 1.51
CACAGACAACACGCCCCCACACAGACACAGAGGGAAGGGGUUGGGAUGGGGACAGGGUGCACAGCAGGGCGGGGUAGGACCCCAGCCCCU | -1.22
CACAGACAACACGCACCCACUCAGACACAGAGGGAAGGGGUUGGGAUGGGGACAGGGUGCACAGCAGGGCGGGGUAGGACCCCAGCCCCU | -0.0649
AAGUCCUGUGCUACACAUCGUAUGUACCGAAUCGGGAGGGUUUGGGUUUUUUUGGGAAAGUAUUAUGUUACGCCGUUCGGAUCUGCACUU | -1.47
GAAAAUUUCUCAGUUCUUAAGAAUGCUUGCUGUGGGUAUAGUGCAGGUAUAUUGAAAGGAAUUUUUUUCUUGCAGCGGGAAAGAGACAUG | -3.27
UAACUUUAGAGGAGGUUCUGAUGGAUAUGGCAGUGGACGUGGAUUUGGGGAUGGCUAUAAUGGGUAUGGAGGAGGACCUGGAGGUGGCAA | -0.0415
CUCAAGUCCUGUGCUACACAUCGUAUGUACCGAAUCGGGGAAGGAAGGGAAGGAAAGUAUUAUGUUACGCCGUUCGGAUCUGCACUUCCA | -1.03

Block 2
Target: DDIT3, bZIP domain (human)
Method: DHFR protein complementation
Medium: yeast
Setting: single substitutions, most at no-binding floor
Reference: wild-type JUN-FOS pair
Reading: higher = stronger binding
Starting sequence: JUN, bZIP domain (human); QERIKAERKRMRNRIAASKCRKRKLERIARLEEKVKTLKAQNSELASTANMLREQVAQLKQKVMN; partner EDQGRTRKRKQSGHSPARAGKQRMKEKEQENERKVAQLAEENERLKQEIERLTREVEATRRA
Substitution | binding fitness [natural log]
N42D | -1.36
M51H | -0.00918
E44L | -0.0313
V35S | -0.624
Q41D | -0.308
K36C | 0.0507
E44W | -0.451
L38R | -1.21
T37Q | 0.169
V56T | -0.763
N42Y | -0.611
S43P | -1.22
T48W | -0.0984
S47G | -0.0174
K34R | 0.158
K39C | -0.156
E54F | -0.277
L31T | -0.448
R30L | 0.0937
S47Y | 0.00503
T37P | -1.33
L45F | -0.748
T48A | -0.0229
Q55E | 0.0218
E32P | -1.15

Block 3
Target: CCNB2, cyclin fold, Cln2 fusion (human)
Method: yeast growth competition, sequencing
Medium: yeast
Setting: weak parent motif
Reference: not given
Reading: higher = stronger binding
Starting sequence: SCAPER docking peptide (human); SNARRSLNFGGST
Substitution | normalised enrichment score
SNARESLNFGGST [R5E] | -0.0184
SNARRSLNFGGSA [T13A] | -0.0123
SNARYSLNFGGST [R5Y] | -0.0695
SNARRSLNFGGWT [S12W] | 0.292
SNARRSLNFGEST [G11E] | -0.471
SPARRSLNFGGST [N2P] | 0.0798
SNARRPLNFGGST [S6P] | 0.347
SNARRSLNFAGST [G10A] | 0.29
SNARRSLNFGRST [G11R] | -0.473
SNARKSLNFGGST [R5K] | 0.112
SNARRSLNFGGFT [S12F] | 0.249
SNARASANFGGST [R5A L7A] | -0.0297
SNARRSLDFGGST [N8D] | -0.104
SNAVRSLNFGGST [R4V] | -0.0407
SNARGSLNFGGST [R5G] | -0.439
SNARRSLNFGQST [G11Q] | 0.0614
SNARRSLNFGGSK [T13K] | 0.337
SNARRSLTFGGST [N8T] | 0.245
SNARRSLNFGMST [G11M] | 0.221
SNARRSLNFGGET [S12E] | 0.83
SNARRWLNFGGST [S6W] | 0.371
SNARRSLNFGGCT [S12C] | -0.0795
SNARRSLNFGGKT [S12K] | 0.414
SNARRSLNFSGST [G10S] | -0.187
SNARRSINFGGST [L7I] | 0.108

Block 4
Target: RNA binding protein fox-1 homolog 2, RRM domain, GST-SBP tag (RBFOX2, Homo sapiens, UniProt O43251-10, residues 100-194)
Method: RNA Bind-n-Seq
Form: RNA
Medium: in vitro
Tested at: 365 nM
Setting: natural RNA segment, single round, ends assumed
Reference: no-protein control
Reading: higher = stronger binding
Shared flanks, not repeated: GGGAGUUCUACAGUCCGACGAUC … UGGAAUUCUCGGGUGCCAA
Construct (chain): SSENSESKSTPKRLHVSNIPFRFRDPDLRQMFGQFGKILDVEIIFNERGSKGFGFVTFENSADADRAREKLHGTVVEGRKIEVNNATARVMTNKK
Strand | RBNS enrichment (R)
AUGAAGCAAGCACUAAAGUACUGUCCUGAGUUGGGAACAAAGCACUGUGGGCAAGGUCGAUGCAAUGCCUGCACUACAGGCCUGUCUUCUGUGGAUCUCUCUCCUUGGCC | 0.238
UAUUUGAGCAAAUAAUGAUAGGGCAUACUCAGACAUUUUAGCUACCUUUUAUACCUACGAUUUCAUGUCACAUUUACUAAUAGAAUUAAGGGAAAUAGAAGCCCGUUCUU | 0.275
CCGUAUUAAGAAAUCAGAACAGUGCCUUAAGACAGACUGAGACGUCGUGAAAAAUGUGUUCACACUGUGGGAGGCAAAGCUUGGUCUGAGAAUGUAACUGUUGAUGUGAG | 1.22
CGAAGGGCGUUCCAAUGCAGGAAAAUGAACCUCUUUCCCAACCCAGGACUGGGGCUUUCUCCCCAGAGGUGAGCCUCUGUGAGCAUCGAGAGGAUUUGCACAUGCCAAGC | 6.42
UUGGAAAAAAGGCACAGCAAAUAUCAAAUUUUCUCAACUAAUACUAAAGAAGAGACUACAUUAUUUAUUUUUUAAAUUAAGCCUUCAAUAAUAAAGUGAGUAUACAAAUU | 0.776
GAGAAGUUUGCCUUGGCAGCAAGUAUUUAUUGUUGACAUUAUUCAGAAUUAGUGAUAAUAAAAAGCAGAGUGAUUUUGGUCAAUUUUAUUAUUAAUUCUUAAAUUCCCUG | 0.294
GGAUAGGGACAGCCCAGGUCACAGCCAGGGUCAACAGAGGUACCACAGAGCUACCUUUUGGGAUGAUUGCUUGAUUGUUUUUUUAUCUGAGAAUUCUAGAUAGAUAGCUA | 0.662
AUACCAGCUAGGUCAGGGGGUGGGGAAAACACAUACAAAAAGGCAAGCCCAUGUCAGGGCGAUCCUGGUUCAAAUGUGCCAUUUCCCGGGUUGAUGCUGCCACACUUUGU | 0.383

Further values, each from its own experiment
Substance | target | test | test system | conditions | scale | quantity | result
PhoQ, residues 284 288 289 292 302 303 SLSLLA | PhoP, residues 12 14 15 18 19 GMGLL (Escherichia coli, UniProt P23836) | Sort-seq, refers to: YFP reporter | E. coli | PhoQ-PhoP variant library, with: 10 µM Mg2+ | reference: high Mg2+ state, higher = stronger signaling | fold induction | 18.5

Excerpt of the above (block 3):
Substitution | normalised enrichment score
SNARESLNFGGST [R5E] | -0.0184
SNARRSLNFAGST [G10A] | 0.29
SNARRSLNFGQST [G11Q] | 0.0614
SNARRPLNFGGST [S6P] | 0.347
SNARRSLNFSGST [G10S] | -0.187
SNARRSLDFGGST [N8D] | -0.104
SPARRSLNFGGST [N2P] | 0.0798
SNARRSLNFGGWT [S12W] | 0.292
SNARRSLNFGMST [G11M] | 0.221
